Results of several laboratories.
Lines come from different studies, so protocols differ. ± gives the spread as reported.

| SMILES | assay | system | setting | solubility |
| --- | --- | --- | --- | --- |
| O=c1cc(-c2ccccc2)oc2c(Br)c(O)c(O)c(O)c12 | – | DMSO, PEG, ethanol, water vehicle | 10% DMSO, 35% PEG 400, 2% ethanol, 63% water | 6250 µg/mL |
| CC(=O)N[C@H]1CSCC(=O)N2CN(C(=O)CN=[N+]=[N-])CN(C2)C(=O)CSC[C@@H](C(N)=O)NC(=O)[C@H](CC(N)=O)NC(=O)[C@H](CC(N)=O)NC(=O)[C@H](CC(C)C)NC(=O)[C@H](CC(C)C)NC(=O)[C@H](Cc2ccccc2)NC(=O)[C@H](C(C)C)NC(=O)[C@H](CC(=O)O)NC(=O)[C@H]([C@@H](C)O)NC(=O)[C@H](CCC(=O)O)NC(=O)[C@H](CC(N)=O)NC(=O)[C@H](CCC(=O)O)NC(=O)CNC(=O)[C@H](Cc2c[nH]c3ccccc23)NC(=O)[C@H]([C@@H](C)O)NC1=O | – | acetonitrile/water 1:1 with 0.1% TFA | crude cyclic peptide | 16200 µg/mL |
| COc1ccc2[nH]c3c(c2c1)CCN(C)CC3 | – | 0.9% saline | fumarate salt | ≥ 40000 µg/mL |
| O=C(N=P12CN3CN(CN(C3)C1)C2)c1cccc[c]1[Pd]([Br])([PH]12CN3CN(CN(C3)C1)C2)[PH]12CN3CN(CN(C3)C1)C2 | – | water | – | 800 µM |
| CC(C)C[C@H](NC(=O)[C@H](CCCCN)NC(=O)[C@H](CCC(N)=O)NC(=O)[C@@H](N)Cc1c[nH]cn1)C(=O)N[C@H](C(=O)N[C@@H](CSSC[C@H](NC(=O)[C@@H](NC(=O)[C@H](CC(C)C)NC(=O)[C@H](CCCCN)NC(=O)[C@H](CCC(N)=O)NC(=O)[C@@H](N)Cc1c[nH]cn1)C(C)C)C(=O)N[C@@H](Cc1ccccc1)C(=O)N[C@@H](C)C(=O)N[C@@H](CCC(=O)O)C(=O)N[C@@H](CC(=O)O)C(=O)N[C@H](C(=O)O)C(C)C)C(=O)N[C@@H](Cc1ccccc1)C(=O)N[C@@H](C)C(=O)N[C@@H](CCC(=O)O)C(=O)N[C@@H](CC(=O)O)C(=O)N[C@H](C(=O)O)C(C)C)C(C)C | turbidity | 20 mM Tris-HCl buffer | pH 7.4 | ≥ 500 µM |
| CC(=O)CCC1C(=O)NC(C(C)C)C(=O)NC(Cc2cc(O)cc(F)c2)C(=O)N2CCCC(N2)C(=O)OC(C(C)=CC=CC(=O)N2CCCCO2)CC=CC=CC(O)C(C)C1O (centres unmarked) | – | PBS with 1% DMSO | 4 h, pH 7.4, room temperature | 140 µM |
| Cc1cnc(N)c(S(=O)(=O)N(C)CC(=O)Nc2ccc(N3CCOCC3)c(Cl)c2)c1 | – | aqueous buffer | pH 6.8 | 20 µg/mL |
| CC[C@H](C)[C@H](NC(=O)[C@H](Cc1ccccc1)NC(=O)[C@H](CCCCN)NC(=O)[C@@H]1CCCN1)C(=O)N[C@@H](Cc1c[nH]cn1)C(=O)N[C@@H](Cc1ccc(O)cc1)C(=O)N[C@@H](CC(=O)O)C(=O)N[C@H](C(N)=O)[C@@H](C)O | – | – | – | < 40000 µg/mL |
| Cc1cnc(N)c(S(=O)(=O)N(C)CC(=O)Nc2ccc(OCCN(C)C)c(Cl)c2)c1 | – | aqueous buffer | pH 6.8 | > 110 µg/mL |
| CC(C)C[C@@H]1NC(=O)[C@H](C(C)C)N(C)C(=O)[C@@H](CC(C)C)NC(=O)[C@@H](Cc2ccccc2)NC(=O)[C@@H]([C@H](OCc2ccccc2)c2ccccc2)NC1=O | – | – | – | 7 µM |
| Cc1cnc(N)c(S(=O)(=O)N(C)CC(=O)Nc2ccc(N3CCN(C)CC3)c(Cl)c2)c1 | – | aqueous buffer | pH 6.8 | > 120 µg/mL |
| CC(=O)N[C@H]1CSCc2nc(CN=[N+]=[N-])nc(n2)CSC[C@@H](C(N)=O)NC(=O)[C@H](CC(N)=O)NC(=O)[C@H](CC(N)=O)NC(=O)[C@H](CC(C)C)NC(=O)[C@H](CC(C)C)NC(=O)[C@H](Cc2ccccc2)NC(=O)[C@H](C(C)C)NC(=O)[C@H](CC(=O)O)NC(=O)[C@H]([C@@H](C)O)NC(=O)[C@H](CCC(=O)O)NC(=O)[C@H](CC(N)=O)NC(=O)[C@H](CCC(=O)O)NC(=O)CNC(=O)[C@H](Cc2c[nH]c3ccccc23)NC(=O)[C@H]([C@@H](C)O)NC1=O | – | acetonitrile/water 1:1 with 0.1% TFA | crude cyclic peptide | 9300 µg/mL |
| Cc1cc(S(=O)(=O)N(C)CC(=O)Nc2ccn(C)c(=O)c2)c2[nH]ncc2c1 | – | aqueous buffer | pH 6.8 | > 110 µg/mL |
| O=P([O-])([O-])Oc1ccc(-c2cc(=S)ss2)cc1.[Na+].[Na+] | HPLC | 0.9% NaCl | 1 h, pH 7.4, 25 °C | 1500 ± 149 µg/mL |
| O=c1c2ccccc2[se]n1CCCn1[se]c2ccccc2c1=O | – | 5% Soluplus in water | 24 h, 25 °C, 50 mg/mL | 165 ± 6 µg/mL |
| CC(C)[C@]12O[C@H]1[C@@H]1O[C@]13[C@]1(O[C@H]1C[C@H]1c4c(C(=O)c5ccccc5)oc(OC(=O)c5ccccc5)c4CC[C@@]13C)[C@@H]2O | – | emulsion formulation | – | ≥ 2000 µg/mL |
| CC(C)(N)CNC(=O)O[C@H]1CCCC2(C1)OOC1(O2)C2CC3CC(C2)CC1C3 (some centres unmarked) | – | PBS | pH 7.4 | 174 µM |
| CC(NC(=O)NNS(=O)(=O)c1ccc(OC(F)F)cc1)(C(F)(F)F)C(F)(F)F | – | aqueous buffer | pH 7.4 | 480 µM |
| COc1cc(NC(=O)CN(C)S(=O)(=O)c2cc(C)cnc2N)ccn1 | – | aqueous buffer | pH 6.8 | > 100 µg/mL |
| CSCC[C@H](NC(=O)[C@H](CCC(=O)O)NC(=O)[C@H](Cc1ccc(O)cc1)NC(=O)[C@@H](NC(=O)[C@H](CC(C)C)NC(=O)[C@H](CC(=O)O)NC(=O)[C@H](CC(C)C)NC(C)=O)[C@@H](C)O)C(=O)N[C@@H](CC(C)C)C(=O)N[C@@H](CO)C(=O)N[C@@H](CC(C)C)C(=O)N[C@@H](CCC(N)=O)C(=O)N[C@@H](CCC(N)=O)C(=O)N[C@H](C(=O)N[C@H](C(=O)N[C@@H](CCCCN)C(=O)N[C@@]1(C)CCCC=CCCC[C@@](C)(C(=O)N[C@@H](Cc2ccc(O)cc2)C(N)=O)NC(=O)[C@H](CCC(=O)O)NC(=O)[C@H](CC(N)=O)NC(=O)[C@H](CC(C)C)NC1=O)C(C)C)C(C)C | – | – | concentration not given, 24 (unit not given), pH 7.4 | 10500 µg/mL |
| CCCCCc1cc(OC(=O)C(NC(=O)CCC(=O)O)C(C)C)c2c(c1)OC(C)(C)C1CCC(C)=CC21 (centres unmarked) | shake-flask | aqueous buffer | 24 h, pH 3, 25 °C | < 1 µg/mL |
| CCCCCCCCCCCCCCCC(=O)Nc1nc2ccccc2c2c1ncn2CC(C)C | – | oil or lipid | – | 19000 µg/mL |
| CC(C)C[C@@H](NC(=O)CCNc1ccc([N+](=O)[O-])c2nonc12)C(=O)N[C@H](CC(C)C)C(=O)N[C@H](CC(C)C)C(=O)N[C@H](CC(C)C)C(=O)N[C@H](Cc1ccc(OP(=O)(O)O)cc1)C(=O)O | visual inspection | PBS | – | ≥ 10000 µM |
| O=C(CN1CCN(c2cc3c(cc2F)c(=O)c(C(=O)O)cn3C2CC2)CC1)Nc1ccc(Cl)cc1 | – | DMSO | – | 28100 µg/mL |
| Cc1cnc(N)c(S(=O)(=O)N(C)CC(=O)Nc2ccc(=O)n(C)c2)c1 | – | aqueous buffer | pH 6.8 | > 95 µg/mL |
| O=c1c2ccccc2[se]n1CCCCn1[se]c2ccccc2c1=O | – | 10% Soluplus in water | 24 h, 25 °C, 100 mg/mL | 246 ± 9 µg/mL |

Excerpt of the above:
| SMILES | assay | system | setting | solubility |
| --- | --- | --- | --- | --- |
| CC(C)C[C@@H]1NC(=O)[C@H](C(C)C)N(C)C(=O)[C@@H](CC(C)C)NC(=O)[C@@H](Cc2ccccc2)NC(=O)[C@@H]([C@H](OCc2ccccc2)c2ccccc2)NC1=O | – | – | – | 7 µM |
| Cc1cnc(N)c(S(=O)(=O)N(C)CC(=O)Nc2ccc(N3CCN(C)CC3)c(Cl)c2)c1 | – | aqueous buffer | pH 6.8 | > 120 µg/mL |
| CC(=O)N[C@H]1CSCc2nc(CN=[N+]=[N-])nc(n2)CSC[C@@H](C(N)=O)NC(=O)[C@H](CC(N)=O)NC(=O)[C@H](CC(N)=O)NC(=O)[C@H](CC(C)C)NC(=O)[C@H](CC(C)C)NC(=O)[C@H](Cc2ccccc2)NC(=O)[C@H](C(C)C)NC(=O)[C@H](CC(=O)O)NC(=O)[C@H]([C@@H](C)O)NC(=O)[C@H](CCC(=O)O)NC(=O)[C@H](CC(N)=O)NC(=O)[C@H](CCC(=O)O)NC(=O)CNC(=O)[C@H](Cc2c[nH]c3ccccc23)NC(=O)[C@H]([C@@H](C)O)NC1=O | – | acetonitrile/water 1:1 with 0.1% TFA | crude cyclic peptide | 9300 µg/mL |
| Cc1cc(S(=O)(=O)N(C)CC(=O)Nc2ccn(C)c(=O)c2)c2[nH]ncc2c1 | – | aqueous buffer | pH 6.8 | > 110 µg/mL |
